Experimental data gathered from unrelated publications.
Every numbered part comes from another study and shows a few of its results, in no order.

Set 1
Target: RNA binding protein fox-1 homolog 2, RRM domain, GST-SBP tag (RBFOX2, Homo sapiens, UniProt O43251-10, residues 100-194)
Technique: RNA Bind-n-Seq
Form: RNA
Sample: in vitro
Tested at: 365 nM
Setting: natural RNA segment, single round, ends assumed
Baseline: no-protein control
Direction: higher = stronger binding
Constant ends, left off below: GGGAGUUCUACAGUCCGACGAUC … UGGAAUUCUCGGGUGCCAA
Construct (chain): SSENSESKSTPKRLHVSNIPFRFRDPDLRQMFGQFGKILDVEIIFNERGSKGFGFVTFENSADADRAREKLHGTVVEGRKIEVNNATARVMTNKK
| Oligonucleotide | RBNS enrichment (R) |
| --- | --- |
| AUUUAUCAGUGAUUUGUAAGUUUCAUCAAGUGAUUUCUUCGACAAGAUGAACCAAAGGAUUAGCCUCGCGCUACGUCAUUGCAUCCGCUCCCCCUCGUCCUGACUCAGCU | 0.938 |
| UUCUAAAUUUAGUGAUAUGGUAAUGAAAUUGGUAUUUAUUUUAAAUAUUAGUUAUUCUAAGGAGAAAAAAAUGCUUCUGCAAGAUUUUCAUAAUUCAGGGGCUGUGGAUA | 0.696 |
| GACCUCGUGAUCCGCCCACCUCGGCCUCCCAAAGUGCUGGGAUUACAGGCGUGAGCCACCACGCCCAGCCAGGGUUUUCUUUUUUAAUCCUUUCCAGAAACAGAAAGAGC | 0.227 |
| CUCACCUAGAUUACACUCAAUUGAUACCCACUCAUGAAGAUUUUGCUGAGAUUUUAUGAUUCCAGGUUCAGGGGUGAGAAGGAUUCUGGUACCUGAUACCUGUUGGAGAU | 0.621 |
| UGGCAUUCCUACCCUACAUCCUAUUUACCAGCAUACAUCAAACUGCUGCUGAUUUGAUUCCUCAAGAAAAUGAUUGGGGAAUAUUGUAGACUUCUUUUCCCUCCUAUUAA | 0.385 |
| GUGGGUGGAUAUCUGCCUUCCUGCUGCAAGUGGAGGCAGGUCCAGCAGCCCCUCUUCAGAGCCCCUGUAAAUGCUAUCGCAGCCUGAGUCCUGCCGCCUUCCAGUUCCUU | 0.329 |
| GAGAUAUCUUUUUAGGAUCUGUUAGGAAUAAGAUUGAUAUUGUAUUGUGUGUAACCUGCACAAUGUGGAAAGCUGAUGAACCUGUGCCUCCGUGCUGUCAGUGUGGUGUG | 0.695 |
| AAGUAUCCACUUCCCUUUCUAUGAGCCCCAGCUGCUAUUUUGAGACAUCCUGGGGAAAUCGAGCAGAAAAACUGCACAGUUAUGUCAAAGGGCAAAAGUUUAGAAAUCCA | 0.457 |
| CCCAGGACAGUGUUACUUCUUCUGCAUGAUGUGUGGUAGACUCCCUUUGCUGGCUUGUGCAGUGAUACUGAGAAAAUACAUGAACAGAAACUGCCCAGGUGGAACAGCAC | 8.57 |
| GAACUUUUUCGCUUCUGUAAGUAUGCUCUAUGCACCUCUAACGUUUUAUCCUGUAUUUAUAUGUUGUACACAGUACUGGCCAAUUCUGUAAAUGGAUGUAUUGUACAGAG | 0.639 |
| AAAAAGGAAAAAAAAAAGAAAAAGAUCCUGUUACAACCCUCAUCACCUCAAAAACAAGGUUAACAGAGGGGUCAAGUGAGUCUUUUUUUUUUUUUUUUUUUAAAGACAGA | 0.537 |
| UCUGUGACUCACCUGCCCUUCCUUCCCCCCUUGGCCCUAGCCGUGCCUCGUCCCACUAUGCACAGAUUGAAACUUCACCUACAAACCUGUUAGUGUGAUCUGUGGAGAAU | 0.672 |

Set 2
Target: Interferon regulatory factor 3, full length, phosphomimetic (IRF3, Homo sapiens, UniProt Q14653, residues 1-427, S386D/S396D/S398D/S402D/T404D/S405D)
Sequence of UniProt Q14653 (whole entry, unmodified, looked up): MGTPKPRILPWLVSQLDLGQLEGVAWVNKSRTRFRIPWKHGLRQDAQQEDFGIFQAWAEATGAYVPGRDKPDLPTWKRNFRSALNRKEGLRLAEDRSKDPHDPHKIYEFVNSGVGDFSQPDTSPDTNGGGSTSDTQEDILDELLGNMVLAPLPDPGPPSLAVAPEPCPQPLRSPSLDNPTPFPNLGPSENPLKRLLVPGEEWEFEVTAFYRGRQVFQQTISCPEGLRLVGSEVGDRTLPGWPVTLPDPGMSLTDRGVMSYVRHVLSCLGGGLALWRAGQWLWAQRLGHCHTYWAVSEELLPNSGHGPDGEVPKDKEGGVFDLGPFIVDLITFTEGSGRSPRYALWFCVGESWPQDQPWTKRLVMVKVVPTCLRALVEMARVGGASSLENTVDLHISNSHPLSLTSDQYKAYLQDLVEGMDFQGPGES
Technique: protein-binding microarray
Form: double-stranded DNA, one strand shown
Sample: in vitro
Tested at: 2540 nM top
Setting: 60-bp whole probe
With: salmon DNA 0.4 mg/ml
Baseline: random background probes
Direction: higher = stronger binding
Constant ends, left off below: GCCTAGCAC … GTCTTGATTCGCTTGACGCTGCTG
| Oligonucleotide | fitted relative affinity |
| --- | --- |
| TCACCTCTCCATACTTCACTGTGCTAG | 1.04 z-score |
| AGCAGAAAGTGAAATACCCTCGTGCTA | -0.368 z-score |
| TTAGGTTACGGTTCCGGTTAGTGCTAG | 2.85 z-score |
| GACGGTATCGGCCTGGGGACGTGCTAG | 0.597 z-score |
| GTTTTTCTCCTATTTAAGACGTGCTAG | 3.1 z-score |
| GAGGATCTCAGACTGGAGACGTGCTAG | -0.346 z-score |
| TTAGGTTTCGGATTCGGTTAGTGCTAG | 8.44 z-score |
| GACGGTATACTTCTCCTGACGTGCTAG | 0.948 z-score |
| TCAAGAAAGTGAAATACCACTGTGCTA | -0.407 z-score |
| GACGCTATCAGTCTCGAGACGTGCTAG | 1.05 z-score |
| GACGGACTAGGTTTCGGGACGTGCTAG | 2.24 z-score |
| GACGAACTGGGGTATCTAGACGTGCTA | -0.44 z-score |
| GACGCTTTCCTTATCCTGACGTGCTAG | 5.36 z-score |
| GGCGAACTGGGGACTGGAGACGTGCTA | -0.964 z-score |
| GACGGTTTCCTTCTCCGGACGTGCTAG | 9.98 z-score |
| ATGGAAATCTCAATGGGTTAGTGCTAG | -0.434 z-score |
| GTCGAACTGAGTCTCGAGACGTGCTAG | 0.168 z-score |
| GGATCTTGCAGATGTCGCTGGGTGCTA | -0.118 z-score |
| TCAGTTTTCTTTTCATTACTGTGCTAG | 6.94 z-score |
| TTAGAACTGGGGACTGGATTAGTGCTA | -0.8 z-score |
| GTCAGGGGTCTTGCTCTGTAGTGCTAG | -1.28 z-score |
| TTAGAACTGAGTTTCAATTAGTGCTAG | 0.527 z-score |

Set 3
Target: Sal-like protein 4, full length isoform A (SALL4, Homo sapiens, UniProt Q9UJQ4, residues 1-1053)
Sequence of UniProt Q9UJQ4 (whole entry, looked up): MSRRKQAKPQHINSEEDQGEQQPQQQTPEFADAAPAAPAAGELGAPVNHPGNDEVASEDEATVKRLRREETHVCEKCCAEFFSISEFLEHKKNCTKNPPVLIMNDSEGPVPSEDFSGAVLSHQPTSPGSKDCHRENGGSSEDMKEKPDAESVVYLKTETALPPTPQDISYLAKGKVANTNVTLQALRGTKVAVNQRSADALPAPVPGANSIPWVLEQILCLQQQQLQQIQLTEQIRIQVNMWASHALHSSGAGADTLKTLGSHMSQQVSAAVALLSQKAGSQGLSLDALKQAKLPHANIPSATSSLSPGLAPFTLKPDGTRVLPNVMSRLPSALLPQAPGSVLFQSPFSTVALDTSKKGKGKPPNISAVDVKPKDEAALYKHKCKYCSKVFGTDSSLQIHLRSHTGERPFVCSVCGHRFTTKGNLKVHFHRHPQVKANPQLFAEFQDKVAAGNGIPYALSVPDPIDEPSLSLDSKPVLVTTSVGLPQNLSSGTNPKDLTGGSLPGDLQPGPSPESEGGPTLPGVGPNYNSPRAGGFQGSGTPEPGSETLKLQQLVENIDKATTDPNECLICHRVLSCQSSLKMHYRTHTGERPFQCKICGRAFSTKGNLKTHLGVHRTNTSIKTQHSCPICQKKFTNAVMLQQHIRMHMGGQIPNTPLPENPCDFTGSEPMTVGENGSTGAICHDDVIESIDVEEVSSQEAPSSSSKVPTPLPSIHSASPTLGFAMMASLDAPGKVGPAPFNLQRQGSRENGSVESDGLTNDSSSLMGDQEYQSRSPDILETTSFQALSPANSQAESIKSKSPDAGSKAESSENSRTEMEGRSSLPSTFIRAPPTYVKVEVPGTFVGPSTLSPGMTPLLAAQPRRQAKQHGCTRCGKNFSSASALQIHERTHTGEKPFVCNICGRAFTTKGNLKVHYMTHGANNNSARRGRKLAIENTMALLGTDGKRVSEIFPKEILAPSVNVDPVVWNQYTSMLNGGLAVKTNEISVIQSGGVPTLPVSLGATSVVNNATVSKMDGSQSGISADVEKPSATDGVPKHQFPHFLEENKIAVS
Technique: universal PBM
Form: double-stranded DNA, one strand shown
Sample: in vitro
Tested at: 600 nM
Setting: 8-mer, flanks averaged, mean of replicates
Direction: higher = stronger binding
| Oligonucleotide | E-score |
| --- | --- |
| AACTACTC | 0.0763 |
| CTTTGGAC | -0.0206 |
| ATCTCACA | 0.119 |
| CGTGTGAC | -0.149 |
| CAGTGACG | -0.128 |
| CCCTGCCA | -0.124 |
| GCGGCGCA | -0.172 |
| GAAGGCTC | -0.258 |
| AGACTTGA | 0.0519 |
| CATCAGCG | -0.0903 |
| GAGCCAGA | -0.26 |
| CAGGTCGC | -0.135 |
| CAAAAGCA | -0.0067 |
| GTAGCTAC | 0.0175 |
| CGCTGTGC | -0.23 |
| ATGCTACA | 0.116 |
| CAGAATGA | 0.146 |
| GTTAACCA | 0.0919 |
| GTGCTTTA | 0.103 |
| CTCAAGCA | 0.062 |
| TAACCAAA | 0.235 |
| CGAAGGCA | -0.0845 |
| CCCCGCGC | -0.296 |

Set 4
Target: Histone acetyltransferase KAT6A, winged helix 2, GST fusion (KAT6A, Homo sapiens, UniProt Q92794, residues 85-181)
Technique: protein binding microarray
Form: double-stranded DNA, one strand shown
Sample: in vitro
Tested at: not given
Setting: 8-mer, flanks averaged, mean of 2 arrays, mostly near background
Baseline: not given
Direction: higher = stronger binding
Target sequence (chain): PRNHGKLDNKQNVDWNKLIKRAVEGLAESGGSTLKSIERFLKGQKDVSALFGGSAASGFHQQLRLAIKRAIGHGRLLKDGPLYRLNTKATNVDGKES
| Oligonucleotide | E-score |
| --- | --- |
| AAACCTGA | -0.114 |
| CACCGCGA | -0.0327 |
| CTACCTAC | 0.0111 |
| CCACCGTA | -0.0234 |
| ACGTATCA | -0.169 |
| TCAAGTGA | -0.0315 |
| CTTTGGTC | 0.0894 |
| CCGTCATA | -0.014 |
| AGGGCGAG | -0.044 |
| CAACCTTA | -0.108 |
| CATTGATA | -0.0149 |
| GACGTTAA | -0.176 |
| AACTGGGC | -0.0443 |
| ACAATCGA | 0.101 |
| GGTATTGA | -0.0821 |
| CACGGTTA | 0.00359 |
| TATCTTCA | -0.0341 |
| AAGCATTC | 0.0193 |
| AATGCATT | -0.0553 |
| GCCTGTAA | -0.121 |
| CCACCATC | -0.106 |
| CCTTCCGC | 0.0797 |
| AGACCAAG | 0.0339 |
| GACTGTCA | -0.165 |
| TAGGTTAA | 0.028 |

Set 5
Target: RING finger protein unkempt homolog, zinc fingers 1-6, GST-SBP tag (UNK, Homo sapiens, UniProt Q9C0B0, residues 30-357)
Sequence of UniProt Q9C0B0 (30-357, looked up): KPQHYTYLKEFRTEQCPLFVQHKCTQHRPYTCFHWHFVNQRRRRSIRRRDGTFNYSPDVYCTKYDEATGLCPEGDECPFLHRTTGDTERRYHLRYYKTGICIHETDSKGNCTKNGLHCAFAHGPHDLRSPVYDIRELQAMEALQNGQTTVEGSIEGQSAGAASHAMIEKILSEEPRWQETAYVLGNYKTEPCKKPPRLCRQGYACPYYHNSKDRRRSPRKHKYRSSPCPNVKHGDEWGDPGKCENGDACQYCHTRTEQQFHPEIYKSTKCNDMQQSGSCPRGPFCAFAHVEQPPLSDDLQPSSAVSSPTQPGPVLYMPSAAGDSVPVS
Technique: RNA Bind-n-Seq
Form: RNA
Sample: in vitro
Tested at: not given
Setting: RNA with constant flanks, human and mouse sites, ends assumed
Baseline: input RNA pool
Direction: higher = stronger binding
Constant ends, left off below: GGGAGUUCUACAGUCCGACGAUC … CAACAGAGGAUUGAGCAUCA
| Oligonucleotide | bound/input enrichment [ratio] |
| --- | --- |
| CGCUAUCAACACUUCUUUGAGGCCUGCCGCCUCUUGCAGCAGAUGAUCGACAUUGCUAUUGAUGGUUUUCUUUUGACUCCAGUACAGAAGAUCUGCAAAUAUCCCUUACAAUUGGCCGAG | 0.181 |
| GCCAACCAGGCGUCAGCUACUUCCGAAGAGUGUACGGUUGCAUGGGGAGUCUGCAACCAUGCUUUUCAUUUCCACUGCAUCUCUCGAUGGCUCAAAACGAGGCAGGUGUGUCCGUUGGAC | 0.135 |
| CAGCGUUGCCUCCCUGUCCUGGGCAGGGGCCACUUGUUAUUUUAUUUAUUUUUAAUUUAUAAUUUAUUCAAAUUGGAUUGCCUUGGUAACCUCCCACACCUGAUAAUUGGCAUCACUCCU | 1.47 |
| ACUGCUGGUUUAACAAUGCAUGCAUCAAUUCUUGCAUAUAUGUUUAAUUUGGUUGAAGAAGGAAAAAUAAGUACAUCAUUAAAUCCUGGAAAUCCAGUUAACAACCAAAUCUUUCUUCAG | 0.353 |
| UUUUCAGUAAGACUUUCAGGCACUUCUUCCCUUUUGAUUUCUUUUUUUUCCUCUGUUUUUUAGCAUGCAAGUAUGUUGGUACGUUAUGUCCUGGUUUAAAAAGGAUUAAAAUUUUAAAAU | 0.709 |
| GACACAUCCUUUAACCGGAAAGACCAUCUUAGAACUCAUCAGAGAUUUCACACAGGAGAGAGAAUUUACAAAUGUAGUGAAUGUGAUGAAUCCUUUACCCAGAAAAUUAAUCUAAGAAUU | 0.246 |
| AUCCACAGUAUUGUUCUUGUAAAACUGUGACAUUCCACAGAGUUACUGCCACGGUCCUUUGAGUGUCAGGCUCUGAAUCUCUCAAAAUGUGCCGUCUUUGGUUCCUCAUGGCUGUUAUCU | 0.116 |
| GUGACAAUUCCAGAGAGCGCACAUAUAUUCACCAGCUUUUAUGCUAAAACAAAAUCGCUAUUAGUUAAUCCAGCACUCUUUUUAAACCCUGAAGACUAUAACCAUCUAAUGGGUUAUGAC | 0.486 |
| AUAACAAUGCUGGUUCCUGGAGGAGAAGGACCUGAAGUGUGAAUGAGUUUCCUUGACUUACACUAGAUUUUGUUUUGGCUUAUAAUGACAAGAAAAUGGAAUUUUUUUUCCCACUUUCUA | 0.618 |
| AAGAACACACCAGUUAAAUCCUCAGAAGGGUCACAGCAAAGGAGUCCAUCAUAUACCAAUGAUUCAACAGCCACUUUCAUCAUUGAUGGCAUGCAUUGUAAAUCAUGUGUGUCAAAUAUU | 0.122 |
| AAGCACUUUCAACAGGCAAAAAUGAUAUUGGAAAAUAUUCCUAACCCGGACCAUGAGGUUAAUAGAAUUUUAAAGGUUGCCAAACCCAACUUUGUGGUUAUGAAGUUAUUGGCAGGAGGA | 1.87 |

Excerpt of the above (set 2):
| Oligonucleotide | fitted relative affinity |
| --- | --- |
| GACGGTTTCCTTCTCCGGACGTGCTAG | 9.98 z-score |
| GAGGATCTCAGACTGGAGACGTGCTAG | -0.346 z-score |
| GACGGACTAGGTTTCGGGACGTGCTAG | 2.24 z-score |
| GACGGTATACTTCTCCTGACGTGCTAG | 0.948 z-score |
| TTAGGTTTCGGATTCGGTTAGTGCTAG | 8.44 z-score |
| TTAGAACTGGGGACTGGATTAGTGCTA | -0.8 z-score |
| GACGGTATCGGCCTGGGGACGTGCTAG | 0.597 z-score |
| GACGCTATCAGTCTCGAGACGTGCTAG | 1.05 z-score |
| AGCAGAAAGTGAAATACCCTCGTGCTA | -0.368 z-score |
| TTAGAACTGAGTTTCAATTAGTGCTAG | 0.527 z-score |
| GTCAGGGGTCTTGCTCTGTAGTGCTAG | -1.28 z-score |
| TCAAGAAAGTGAAATACCACTGTGCTA | -0.407 z-score |
| GACGAACTGGGGTATCTAGACGTGCTA | -0.44 z-score |
| GACGCTTTCCTTATCCTGACGTGCTAG | 5.36 z-score |
